Earlier results that unrelated publications cite.
Numbers after ± are the reported error.
Si: Sucrase-isomaltase, intestinal (Si, Rattus norvegicus, UniProt P23739)
Sequence of UniProt P23739 (whole entry, looked up): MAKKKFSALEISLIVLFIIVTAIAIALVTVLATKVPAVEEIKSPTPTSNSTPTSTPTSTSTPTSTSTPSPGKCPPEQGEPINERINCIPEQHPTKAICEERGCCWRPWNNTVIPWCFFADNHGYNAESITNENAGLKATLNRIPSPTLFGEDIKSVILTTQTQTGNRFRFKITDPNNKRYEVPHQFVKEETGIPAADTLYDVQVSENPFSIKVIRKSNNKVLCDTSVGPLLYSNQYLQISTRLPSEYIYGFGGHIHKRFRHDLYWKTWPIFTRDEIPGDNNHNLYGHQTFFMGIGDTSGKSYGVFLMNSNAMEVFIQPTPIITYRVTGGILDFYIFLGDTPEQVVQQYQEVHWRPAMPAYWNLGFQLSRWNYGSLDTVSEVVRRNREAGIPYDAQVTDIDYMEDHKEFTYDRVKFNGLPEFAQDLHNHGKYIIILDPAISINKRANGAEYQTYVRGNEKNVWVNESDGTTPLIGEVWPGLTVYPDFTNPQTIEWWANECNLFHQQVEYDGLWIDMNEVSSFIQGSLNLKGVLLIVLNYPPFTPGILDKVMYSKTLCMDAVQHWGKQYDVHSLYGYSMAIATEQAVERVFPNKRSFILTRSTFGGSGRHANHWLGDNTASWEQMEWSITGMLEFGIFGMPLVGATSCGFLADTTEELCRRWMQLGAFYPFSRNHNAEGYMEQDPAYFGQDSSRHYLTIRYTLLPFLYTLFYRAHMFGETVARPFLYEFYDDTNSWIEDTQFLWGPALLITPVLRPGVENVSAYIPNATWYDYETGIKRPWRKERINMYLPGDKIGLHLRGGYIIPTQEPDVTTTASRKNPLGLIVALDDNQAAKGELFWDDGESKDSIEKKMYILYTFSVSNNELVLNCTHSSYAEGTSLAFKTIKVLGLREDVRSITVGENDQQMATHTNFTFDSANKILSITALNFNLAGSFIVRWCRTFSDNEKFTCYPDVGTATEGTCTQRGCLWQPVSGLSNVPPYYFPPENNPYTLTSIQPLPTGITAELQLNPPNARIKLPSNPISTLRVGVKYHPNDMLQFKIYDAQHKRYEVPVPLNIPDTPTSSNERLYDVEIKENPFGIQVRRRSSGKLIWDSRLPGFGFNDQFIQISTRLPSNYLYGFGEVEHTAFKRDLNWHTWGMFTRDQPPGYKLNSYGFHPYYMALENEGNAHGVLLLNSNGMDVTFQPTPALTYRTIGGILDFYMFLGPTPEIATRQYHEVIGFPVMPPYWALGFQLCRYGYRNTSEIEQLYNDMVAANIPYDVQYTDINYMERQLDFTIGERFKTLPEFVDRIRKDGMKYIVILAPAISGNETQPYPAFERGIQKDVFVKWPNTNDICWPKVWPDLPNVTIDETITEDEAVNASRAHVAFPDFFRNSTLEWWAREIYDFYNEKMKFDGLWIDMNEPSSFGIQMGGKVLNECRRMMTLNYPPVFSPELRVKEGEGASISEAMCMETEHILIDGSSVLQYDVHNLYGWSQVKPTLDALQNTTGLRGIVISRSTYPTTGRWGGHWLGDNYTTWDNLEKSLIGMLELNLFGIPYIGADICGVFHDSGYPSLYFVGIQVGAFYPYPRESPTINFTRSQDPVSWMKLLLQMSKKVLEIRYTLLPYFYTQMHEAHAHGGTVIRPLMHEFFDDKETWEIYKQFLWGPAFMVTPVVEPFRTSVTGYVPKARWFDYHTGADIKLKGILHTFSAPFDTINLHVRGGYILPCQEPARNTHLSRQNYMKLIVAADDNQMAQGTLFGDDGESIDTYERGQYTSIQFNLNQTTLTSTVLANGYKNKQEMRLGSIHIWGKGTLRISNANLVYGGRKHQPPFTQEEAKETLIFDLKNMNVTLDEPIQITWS
Sequence of UniProt P52500 (whole entry, looked up): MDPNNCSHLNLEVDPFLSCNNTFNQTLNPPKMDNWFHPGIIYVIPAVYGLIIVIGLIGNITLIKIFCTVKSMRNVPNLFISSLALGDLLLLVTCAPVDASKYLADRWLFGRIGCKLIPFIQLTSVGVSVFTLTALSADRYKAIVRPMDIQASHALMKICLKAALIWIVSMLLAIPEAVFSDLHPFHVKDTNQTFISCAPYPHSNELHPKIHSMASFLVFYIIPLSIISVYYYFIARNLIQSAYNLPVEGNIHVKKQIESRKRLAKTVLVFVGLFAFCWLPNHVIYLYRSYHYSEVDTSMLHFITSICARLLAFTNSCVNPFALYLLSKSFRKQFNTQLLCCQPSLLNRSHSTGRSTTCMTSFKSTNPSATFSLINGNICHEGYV
Sequence of UniProt P49759 (whole entry, looked up): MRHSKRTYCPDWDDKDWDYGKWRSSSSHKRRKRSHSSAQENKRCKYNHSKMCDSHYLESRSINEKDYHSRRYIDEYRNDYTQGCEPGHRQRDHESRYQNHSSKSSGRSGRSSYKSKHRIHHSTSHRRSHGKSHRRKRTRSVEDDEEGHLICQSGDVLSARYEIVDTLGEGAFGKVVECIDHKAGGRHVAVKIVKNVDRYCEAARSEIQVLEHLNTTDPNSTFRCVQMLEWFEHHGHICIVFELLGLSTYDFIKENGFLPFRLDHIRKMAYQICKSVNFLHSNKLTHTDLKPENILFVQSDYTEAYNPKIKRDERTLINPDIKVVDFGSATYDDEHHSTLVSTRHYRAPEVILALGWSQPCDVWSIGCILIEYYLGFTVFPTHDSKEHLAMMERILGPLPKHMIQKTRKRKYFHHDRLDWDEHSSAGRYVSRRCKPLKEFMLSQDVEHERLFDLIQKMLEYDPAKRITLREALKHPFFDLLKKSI
Sequence of UniProt O14965 (whole entry, looked up): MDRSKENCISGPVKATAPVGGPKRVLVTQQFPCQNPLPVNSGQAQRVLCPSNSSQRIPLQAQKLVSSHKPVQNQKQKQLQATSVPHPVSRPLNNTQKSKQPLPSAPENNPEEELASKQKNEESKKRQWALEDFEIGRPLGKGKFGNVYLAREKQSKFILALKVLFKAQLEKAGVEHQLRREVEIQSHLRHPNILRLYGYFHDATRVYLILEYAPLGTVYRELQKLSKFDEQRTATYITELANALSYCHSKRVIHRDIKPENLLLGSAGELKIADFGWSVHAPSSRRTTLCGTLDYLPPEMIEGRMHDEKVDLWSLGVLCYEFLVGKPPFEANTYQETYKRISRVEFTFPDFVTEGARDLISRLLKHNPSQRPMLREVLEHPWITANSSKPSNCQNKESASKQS
Sequence of UniProt P11511 (whole entry, looked up): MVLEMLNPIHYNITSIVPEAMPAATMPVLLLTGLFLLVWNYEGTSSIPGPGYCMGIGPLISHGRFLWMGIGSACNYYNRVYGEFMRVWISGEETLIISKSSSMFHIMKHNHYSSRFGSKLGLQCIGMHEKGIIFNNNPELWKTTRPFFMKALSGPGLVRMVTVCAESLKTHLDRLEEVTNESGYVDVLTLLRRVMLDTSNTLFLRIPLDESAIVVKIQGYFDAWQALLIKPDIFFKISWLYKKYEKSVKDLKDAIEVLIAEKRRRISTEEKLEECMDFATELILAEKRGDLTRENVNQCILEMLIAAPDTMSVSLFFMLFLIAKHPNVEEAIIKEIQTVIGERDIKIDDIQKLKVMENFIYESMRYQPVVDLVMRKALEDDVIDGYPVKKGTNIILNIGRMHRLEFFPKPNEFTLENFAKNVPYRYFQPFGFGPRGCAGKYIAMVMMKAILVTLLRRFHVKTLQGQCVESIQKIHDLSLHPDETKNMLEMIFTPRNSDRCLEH
Sequence of UniProt P12956 (whole entry, looked up): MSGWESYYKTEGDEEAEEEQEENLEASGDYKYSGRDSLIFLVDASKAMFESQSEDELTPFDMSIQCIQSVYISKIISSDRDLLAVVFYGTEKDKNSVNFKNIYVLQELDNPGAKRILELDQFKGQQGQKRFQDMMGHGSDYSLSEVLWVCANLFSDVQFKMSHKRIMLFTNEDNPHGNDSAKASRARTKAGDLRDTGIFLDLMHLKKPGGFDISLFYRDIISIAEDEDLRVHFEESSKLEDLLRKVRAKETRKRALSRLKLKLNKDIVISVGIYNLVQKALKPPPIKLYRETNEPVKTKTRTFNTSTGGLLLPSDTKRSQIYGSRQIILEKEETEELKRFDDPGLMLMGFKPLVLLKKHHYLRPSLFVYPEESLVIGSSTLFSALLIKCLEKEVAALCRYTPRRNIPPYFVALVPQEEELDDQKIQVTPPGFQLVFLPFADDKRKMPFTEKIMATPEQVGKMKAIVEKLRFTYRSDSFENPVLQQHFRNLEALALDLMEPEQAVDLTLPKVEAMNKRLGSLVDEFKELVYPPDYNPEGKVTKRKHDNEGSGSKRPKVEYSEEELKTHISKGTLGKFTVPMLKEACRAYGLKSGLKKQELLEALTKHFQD
Sequence of UniProt Q9NZQ7 (whole entry, looked up): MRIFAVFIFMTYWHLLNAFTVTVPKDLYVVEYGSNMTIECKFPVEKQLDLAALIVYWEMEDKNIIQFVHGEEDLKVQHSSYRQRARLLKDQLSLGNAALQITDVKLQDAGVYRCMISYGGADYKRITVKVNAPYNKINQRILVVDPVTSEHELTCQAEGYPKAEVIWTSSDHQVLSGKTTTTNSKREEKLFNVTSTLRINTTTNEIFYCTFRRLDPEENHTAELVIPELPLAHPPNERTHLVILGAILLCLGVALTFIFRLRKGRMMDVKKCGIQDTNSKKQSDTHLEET
Sequence of UniProt Q9NXA8 (whole entry, looked up): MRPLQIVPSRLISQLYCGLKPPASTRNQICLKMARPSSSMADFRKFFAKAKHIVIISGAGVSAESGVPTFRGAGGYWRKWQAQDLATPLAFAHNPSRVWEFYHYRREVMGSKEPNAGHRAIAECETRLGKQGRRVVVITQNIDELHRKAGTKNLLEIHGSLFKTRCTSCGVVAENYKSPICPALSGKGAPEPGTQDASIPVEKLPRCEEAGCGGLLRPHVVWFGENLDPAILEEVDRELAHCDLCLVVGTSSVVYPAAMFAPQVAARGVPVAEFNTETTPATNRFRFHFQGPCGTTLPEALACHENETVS
Sequence of UniProt P21741 (whole entry, looked up): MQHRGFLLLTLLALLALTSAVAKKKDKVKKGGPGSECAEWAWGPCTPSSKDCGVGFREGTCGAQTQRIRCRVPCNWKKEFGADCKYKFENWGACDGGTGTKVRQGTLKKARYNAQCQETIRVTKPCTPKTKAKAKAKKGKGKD

O=C(Nc1cccc(OCC2CCCN2)n1)Nc1csc(-c2ccncc2)n1 (stereo not drawn)  IC50 (CDK2 (Homo sapiens, UniProt P24941); ATP-competitive inhibitor; CDK2/cyclin E2): 0.004 µM
OC[C@H](OCc1ccccc1)[C@H](O)C[S@@+]1C[C@@H](O)[C@H](O)[C@H]1CO  IC50 (rat intestinal maltase; maltase activity, inhibitor; rat intestinal disaccharidases): 0.32 µM
CO[C@H]1[C@@H](O)[C@H]2O[C@@H]1COP(=O)([O-])OP(=O)(O)OC[C@H]1O[C@H]([C@H](O)[C@@H]1O)[n+]1cnc3c(ncn32)c1N  IC50 (cADPR receptor, sea urchin; antagonist; sea urchin egg homogenate): 4.8 µM
CC(c1ccc(F)cc1)n1nnc2cnc3ccc(-c4ccc5ocnc5c4)cc3c21 (stereo not drawn)  IC50 (CLK1 (Homo sapiens, UniProt P49759)): 0.002 µM
COc1ccc2nc3cc(Cl)ccc3c(NCCCCNc3nc(N)nc(N)n3)c2c1  Kd (RNA repeat r(CUG)2; binding): 2.1 µM
Cc1c(COc2cc(OCc3cncc(C#N)c3)c(CN(CCCN(C)C)CCS(=O)(=O)O)cc2Cl)cccc1-c1ccc2c(c1)OCCO2  IC50 (CD274 (Homo sapiens, UniProt Q9NZQ7)): 0.001 µM
CN1C(=O)[C@@H](Cc2ccc(O)cc2)NC(=O)CNC(=O)[C@H](Cc2ccc3ccccc3c2)NC(=O)[C@H](CCCNC(=N)N)NC(=O)[C@H]1CCCNC(=O)c1ccc(CNC(=O)CN2CCN(CC(=O)O)CCN(CC(=O)O)CCN(CC(=O)O)CC2)cc1 [gallium-68 labelled]  absorbed dose coefficient (PET dosimetry; human patients, small intestine): 0.0123 mGy/MBq
COC(=O)c1ccc2c(c1)NC(=O)/C2=C(\Nc1ccc2c(c1)CCN2C(=O)CN1CCOCC1)c1ccccc1  IC50 (KIT; inhibitor): 0.01 µM
CC1=C(Cn2c3ccc(Cl)c(=O)c-3nc3ccccc32)CCC(C)(C)C1  IC50 (testosterone 5α-reductase; inhibitor): 10 µM
COCCO[C@H]1CC[C@H](Nc2cc(=O)n(C)c3ccc(-c4cncs4)cc23)CC1  IC50 (CD38 (Homo sapiens, UniProt P28907)): 0.007 µM
C/C(=N\Nc1ccccc1)c1ccc(NC(=O)c2cccnc2)cc1  IC50 (KDR (Homo sapiens, UniProt P35968); kinase activity, inhibitor): 0.0249 µM
C#CCOc1ccc(C(=O)c2ccc(C(=O)N[C@@H](CCCCNC(=S)CCCCCCCCCCCCC)C(=O)N[C@@H](C)C(=O)N[C@@H](C)C(=O)OC)cc2)cc1  IC50 (SIRT3 (Homo sapiens, UniProt Q9NTG7); deacetylase activity, inhibitor, HPLC; with: H3K9ac substrate): > 5000 µM
COc1ccc(C(=O)/C=C(\O)C(F)(F)C(F)(F)F)c(O)c1  IC50 (Formate-nitrite transporter (Plasmodium falciparum, UniProt O77389); L-lactate transport; yeast expressing wild type): 0.17 ± 0.01 µM
CN1CCN(c2cc(-c3ccccc3CO)c(N(C)C(=O)C(C)(C)c3cc(C(F)(F)F)cc(C(F)(F)F)c3)cn2)CC1  half-life (healthy volunteers, plasma; oral, 450 mg, single dose, with: palonosetron 0.75 mg): 78.8 h
C#CCCCC1(CCC(=O)N[C@@H](CCCCNC(=S)CCC(=O)O)C(=O)N[C@@H](C)C(=O)N[C@@H](C)C(=O)OC)N=N1  IC50 (SIRT2 (Homo sapiens, UniProt Q8IXJ6); enzyme activity, inhibitor): > 5000 µM
CSCC[C@H](NC=O)C(=O)N[C@@H](CC(C)C)C(=O)N[C@@H](Cc1ccccc1)C(=O)O  Kd (human polymorphonuclear leukocytes; binding): 0.01 to 0.015 µM
N#Cc1c(NC(=O)Nc2cccc3ccccc23)c(C(=O)Nc2ccccc2)n2c1CCC2  IC50 (CDK2; enzyme activity, inhibitor): 0.025 µM
C[C@@H](c1cc(OCC(F)F)ccn1)n1cnc2c(N)nc(Cl)nc21  IC50 (cGMP-specific 3',5'-cyclic phosphodiesterase, catalytic domain 535-860 (PDE5A, Homo sapiens, UniProt O76074); enzyme activity): > 10 µM
CC(=O)O[C@H]1C2=C(C(=O)C(O)=C(C(C)C)C2=O)[C@@]2(C)CCCC(C)(C)[C@@H]2[C@@H]1O  GI50 (UACC-62): ≤ 5 µM
OC[C@H](OCc1ccccc1C(F)(F)F)[C@H](O)C[S@@+]1C[C@@H](O)[C@H](O)[C@H]1CO  IC50 (Si; sucrase activity, inhibitor; rat intestinal disaccharidases): 0.15 µM
C=CC(=O)Nc1cccc(Oc2nc(Nc3ccc(N4CCN(C)CC4)cc3)nc3ccoc23)c1  IC50 (BTK (Homo sapiens, UniProt Q06187); inhibitor): 0.003 µM
CCC(=O)O[C@@H]1[C@@H](OC(C)=O)C2=C(C(=O)C(O)=C(C(C)C)C2=O)[C@@]2(C)CCCC(C)(C)[C@H]12  GI50 (MOLT-3): 5 to 10 µM
CCC1=C(O)c2c(oc(-c3cc4ccccc4s3)cc2=O)C(CC)(CC)C1=O  IC50 (MCF7; cell growth, SRB): 15.2 µM
O=c1c2c(O)cc(O)cc2oc2oc3cc(O)ccc3c12  IC50 (alpha-glucosidase; inhibitor): 10.7 ± 2.01 µM
N#Cc1ccc(N(Cc2ccc(O)c(Br)c2)n2cnnc2)cc1  IC50 (Aromatase (CYP19A1, Homo sapiens, UniProt P11511); enzyme activity, inhibitor; JEG-3): 0.001 to 0.01 µM
COc1cc(C(c2c(O)c3ccccc3oc2=O)c2c(O)c3ccccc3oc2=O)ccc1OCc1cn(Cc2ccccc2C)nn1  IC50 (alpha-glucosidase): 16.4 ± 1.7 µM
C[C@@H](C(=O)N/N=C1\C(=O)Nc2c(Cl)ccc(Cl)c21)c1ccc(O)cc1  IC50 (c-Met kinase): 0.007 µM
COc1ccc(O[C@@H]2O[C@H](COS(=O)(=O)O)[C@H](OS(=O)(=O)O)[C@H](O[C@@H]3O[C@H](C(=O)O)[C@@H](O[C@@H]4O[C@H](COS(=O)(=O)O)[C@H](OS(=O)(=O)O)[C@H](O[C@@H]5O[C@H](C(=O)O)[C@@H](OS(=O)(=O)O)[C@H](OCc6ccccc6)[C@H]5OS(=O)(=O)O)[C@H]4NC(C)=O)[C@H](OCc4ccccc4)[C@H]3OS(=O)(=O)O)[C@H]2NC(C)=O)cc1  IC50 (Midkine (Homo sapiens, UniProt P21741); binding to tetrasaccharide): 5.3 µM
CC1CCC2C(C)(C)C(O)CCC2(C)C12Cc1c(O)cc3c(c1O2)CN(CCCCC(C(=O)O)N1Cc2c(cc(O)c4c2OC2(C4)C(C)CCC4C(C)(C)C(O)CCC42C)C1=O)C3=O (stereo not drawn)  IC50 (SCN2A (Homo sapiens, UniProt Q99250); inactivated-state channel, inhibitor): 0.22 µM
C#CCCCC1(CCC(=O)N[C@@H](CCCCNC(=S)CCCCCCCCCCCCC)C(=O)N[C@@H](C)C(=O)N[C@@H](C)C(=O)OC)N=N1  IC50 (SIRT5 (Homo sapiens, UniProt Q9NXA8); enzyme activity, inhibitor): > 5000 µM
CC1=NN(c2cccc(C(=O)O)c2)C(=O)C1=Cc1ccc(-c2ccc(Cl)c(C(=O)O)c2)o1  IC50 (X-ray repair cross-complementing protein 6/X-ray repair cross-complementing protein 5 (Homo sapiens, UniProt P12956+P13010); DNA binding, EMSA): 75 µM
Cc1cc(Nc2nc(CCc3cccc([N+](=O)[O-])c3)nc3cc(N4CCN(C)CC4)ccc23)n[nH]1  IC50 (Aurora kinase A (AURKA, Homo sapiens, UniProt O14965); kinase activity, inhibitor): 0.006 µM
COCCOCCOCCOCCC(=O)NCc1cc(CNC(=O)CCOCCOCCOCCOC)cc(-c2cc3cc4nc(c(OC)c5[nH]c(cc6nc(cc2[nH]3)CC6(C)C)cc5-c2cc(CNC(=O)CCOCCOCCOCCOC)cc(CNC(=O)CCOCCOCCOCCOC)c2)CC4(C)C)c1  singlet excited-state lifetime (DMF; room temperature): 3.2 ns
CCC1=C(O)c2c(oc(-c3cccc4ccccc34)cc2=O)C(CC)(CC)C1=O  IC50 (MCF7; cell growth, SRB): 1.55 µM
CCCCCCn1cc(O)c(=O)cc1/C=N/OCC  IC50 (tyrosinase; monophenolase activity, inhibitor): 2.04 µM
N#Cc1c(-c2ccc(Cl)cc2)c(C#N)c(=O)n(-c2ccc(S(=O)(=O)NC(=N)N)cc2)c1N  IC50 (DNA gyrase; enzyme activity): 22 µM
COc1cc(C(C)C)c(Oc2cnc(N)nc2N)cc1I  IC50 (P2X3 receptor; inhibitor): 0.0099 ± 0.0011 µM
Cc1ccccc1CO[C@@H](CO)[C@H](O)C[S@@+]1C[C@@H](O)[C@H](O)[C@H]1CO  IC50 (Si; isomaltase activity, inhibitor; rat intestinal disaccharidases): 0.48 µM
O=C(NO)c1ccc(Cn2c3c(c4cc(F)ccc42)SC(c2ccccc2)C3)s1 (stereo not drawn)  IC50 (Histone deacetylase 8 (Schistosoma mansoni, UniProt A5H660); inhibitor; with: Fluor-de-Lys substrate 50 µM): 1.94 ± 0.42 µM
CC(C)C[C@@H](CN[C@H](Cc1ccccc1)C(N)=O)NC(=O)[C@H](Cc1c[nH]cn1)NC(=O)CNC(=O)[C@@H](NC(=O)[C@H](C)NC(=O)[C@H](Cc1c[nH]c2ccccc12)NC(=O)[C@H](CCC(N)=O)NC(=O)[C@H](N)Cc1ccccc1)C(C)C  IC50 (Gastrin-releasing peptide receptor (Rattus norvegicus, UniProt P52500); binding; literature species comparison): 0.062 ± 0.01 µM
Cc1c(O)c(=O)ccn1-c1cccc(C(=O)N/N=C/c2ccco2)c1  IC50 (tyrosinase; enzyme activity, inhibitor): 8.94 µM
COc1ccc(C2CC3(CN(CC(=O)O)C(=O)O3)c3ccccc3O2)cc1 (stereo not drawn)  IC50 (Akr1b1 (Rattus norvegicus, UniProt P07943); enzyme activity, inhibitor): 2.25 µM

For quick reference, copied from above:
CCCCCCn1cc(O)c(=O)cc1/C=N/OCC  IC50 (tyrosinase; monophenolase activity, inhibitor): 2.04 µM
N#Cc1c(-c2ccc(Cl)cc2)c(C#N)c(=O)n(-c2ccc(S(=O)(=O)NC(=N)N)cc2)c1N  IC50 (DNA gyrase; enzyme activity): 22 µM
COc1cc(C(C)C)c(Oc2cnc(N)nc2N)cc1I  IC50 (P2X3 receptor; inhibitor): 0.0099 ± 0.0011 µM
Cc1ccccc1CO[C@@H](CO)[C@H](O)C[S@@+]1C[C@@H](O)[C@H](O)[C@H]1CO  IC50 (Si; isomaltase activity, inhibitor; rat intestinal disaccharidases): 0.48 µM
